Experimental data collected from several papers.
Each numbered part is a random draw from the data of one study; scales do not carry over between parts. Changes are numbered by the printed parent chain.

Block 1 — technique: RNA Bind-n-Seq; molecule type: RNA; matrix: in vitro; concentration: not given; reference: input RNA pool; reading: higher = stronger binding
Target: RING finger protein unkempt homolog, zinc fingers 1-6, GST-SBP tag (UNK, Homo sapiens, UniProt Q9C0B0, residues 30-357)
Chain of UniProt Q9C0B0 (30-357, looked up): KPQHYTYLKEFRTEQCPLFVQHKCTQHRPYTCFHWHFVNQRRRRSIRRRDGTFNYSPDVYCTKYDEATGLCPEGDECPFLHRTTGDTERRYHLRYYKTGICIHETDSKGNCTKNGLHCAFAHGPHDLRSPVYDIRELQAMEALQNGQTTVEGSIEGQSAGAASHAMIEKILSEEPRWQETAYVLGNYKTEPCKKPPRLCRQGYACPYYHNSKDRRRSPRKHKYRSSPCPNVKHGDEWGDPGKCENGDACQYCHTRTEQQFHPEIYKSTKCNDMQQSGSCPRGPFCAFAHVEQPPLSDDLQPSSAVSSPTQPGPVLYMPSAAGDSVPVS
Setting: RNA with constant flanks, human-mouse chimeric sites, ends assumed
All sequences stand within: GGGAGUUCUACAGUCCGACGAUC … CAACAGAGGAUUGAGCAUCA
Oligonucleotide	bound/input enrichment
GAUGAUAAUCACACAAAUGUGGCACUUUUACAUGACCAGCCUUGGGAUUCUUUUCCUGAUUAAUAUUCUCCCUGGAACCACUGGUCAAGGGGAAUCAAGACGACAAGAACCUGGGGACUU	0.114 ratio
UUUCUACUGCAGCAGACGAUGCUAAGAAUUAAGGAUCCUAAGAAGUCCCUGGAUUUUUAUACGAGGGUUCUUGGACUGACCCUCCUGCAGAAGCUUGAUUUUCCCAUUAUGAAGUUCUCG	0.238 ratio
AGAAUCUGUGACUGGCUUUACUUAAUUGGUCAUUGAUAGCUUAACAAACAUGGAGAUGAGAUUAGAAAUCUUGACAUCAACAGGUAUUAAGCAGAAAAAACCAUGGCCACGUGUCUCCUG	0.119 ratio
CAGCUGCGAGGCCGCGGUUUCCCCCUGGGCCUCCCCAGCCGCCGCCAUGGGCAUCAAAUUUUUAGAAGUUAUCAAACCAUUCUGUGCAGUUCUACCAGAAAUUCAGAAACCGGAAAGGAA	0.72 ratio
CUUAAUGUUAAUAUUUUUGAAUAAAUGAAGCUAAAAUGUCUGCUUUUGGUACAACACGCAUUAAUAAAAGGUUAAGUUUUGUUUUCCACUGAAGUACGUAAUACUUAACAUCUCAGAAAC	0.512 ratio
CUCAUGGCUGCAGAAACAGGAAGUGGAAAAACUGGUGCUUUUAGUAUUCCCGUUAUCCAGAUAGUGUAUGAAACUCUGAAAGACCAACAGGAAGGAAAGAAAGGGAAAACAACAAUUAAA	0.887 ratio

Block 2 — technique: DHFR PCA, deep sequencing; matrix: yeast; together with: (+)-ABA 0.11 µM; reference: wild-type fitted maximum; reading: higher = stronger binding
Target: ABI1, truncated, D143A, DHFR fusion (Arabidopsis thaliana)
Setting: methotrexate growth selection, single substitutions
Starting sequence: PYL1, truncated, DHFR fusion (Arabidopsis thaliana); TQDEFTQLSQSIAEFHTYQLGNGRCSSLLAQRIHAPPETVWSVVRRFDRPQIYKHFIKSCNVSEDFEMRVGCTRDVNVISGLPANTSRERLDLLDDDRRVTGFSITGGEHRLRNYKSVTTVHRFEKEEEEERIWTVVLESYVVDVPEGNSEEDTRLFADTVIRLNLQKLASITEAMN; partner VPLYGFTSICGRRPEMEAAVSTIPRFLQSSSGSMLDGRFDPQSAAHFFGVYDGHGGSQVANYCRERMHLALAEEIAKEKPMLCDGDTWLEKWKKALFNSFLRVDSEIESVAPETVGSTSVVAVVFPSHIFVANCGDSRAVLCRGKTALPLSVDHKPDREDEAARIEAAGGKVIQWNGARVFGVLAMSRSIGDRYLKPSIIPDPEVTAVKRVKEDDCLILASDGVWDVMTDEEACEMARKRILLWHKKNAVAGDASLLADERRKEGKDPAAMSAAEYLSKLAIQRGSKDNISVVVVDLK
Substitution	relative binding score [%]
Q167G	13.2
F56C	-8.61
M176I	15.9
L156M	30.8
T73A	10.7
A158F	6.84
N77A	47.8
V78E	-1.43
E89K	-1.47
A158W	7.2
I52M	39.3
L164H	15.5
Y115F	27
V137A	-1.07
S42H	5.56
E125Y	24.7
G102H	-9.02
D95P	-7.27
P83E	13.3

Block 3 — technique: protein binding microarray; molecule type: double-stranded DNA, one strand shown; matrix: in vitro; concentration: not given; reference: not given; reading: higher = stronger binding
Target: Histone acetyltransferase KAT6A, winged helix 2, GST fusion (KAT6A, Homo sapiens, UniProt Q92794, residues 85-181)
Setting: 8-mer, flanks averaged, mean of 2 arrays, mostly near background
Construct (chain): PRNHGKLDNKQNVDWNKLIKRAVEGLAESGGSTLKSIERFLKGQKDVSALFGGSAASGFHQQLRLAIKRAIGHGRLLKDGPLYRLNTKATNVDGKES
Oligonucleotide	E-score
GGTGCGGA	0.0575
CACTAAAA	0.0501
ATATAGAA	-0.14
ACGATCCA	0.0514
GCCCGGTA	0.0793
AGAGTCTG	-0.148
CGTACTTA	-0.0671
CAAAACCA	0.0605
TACTATAA	-0.119
CTCATTAA	-0.0571
AGTAAACC	-0.0646
CTCGCGGA	0.0106
CACCCAGC	0.121
GGGACACC	0.137
TAGCGAGA	0.0653
ACTCTCAC	-0.0516
ATCTTATA	0.0784
ATTAACGG	-0.081
CTTTTCTA	-0.244
CCCCAGGC	0.0859
TAATTCAA	0.106
AGGCGGCA	0.14
CACCTGCC	0.16

Block 4 — target: CCNB3, cyclin fold, Cln2 fusion (human); technique: yeast growth competition, sequencing; matrix: yeast; setting: weak parent motif; reference: not given; reading: higher = stronger binding
Starting sequence: MASTL docking peptide (human); PMIAKNLMCELDE; partner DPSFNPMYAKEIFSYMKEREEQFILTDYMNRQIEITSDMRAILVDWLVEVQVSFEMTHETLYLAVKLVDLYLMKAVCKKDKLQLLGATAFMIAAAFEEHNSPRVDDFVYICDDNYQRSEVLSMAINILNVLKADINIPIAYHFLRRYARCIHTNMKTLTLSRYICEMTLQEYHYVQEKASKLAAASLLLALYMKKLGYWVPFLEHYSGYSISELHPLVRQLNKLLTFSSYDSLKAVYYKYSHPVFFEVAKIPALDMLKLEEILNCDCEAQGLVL
Substitution	normalised enrichment score
PMIAKNLMCWLDE [E10W]	0.233
PMIAQNLMCELDE [K5Q]	-0.361
PMSAKNLMCELDE [I3S]	-0.212
PMIAKNLMCELLE [D12L]	0.0203
PMIAKNGMCELDE [L7G]	-0.299
PMIAKNLHCELDE [M8H]	0.0775
PMIAKNLMCELTE [D12T]	0.145
PMIAKNLMCEKDE [L11K]	-0.074
PMIAKNSMCELDE [L7S]	-0.0703
PEIAKNLMCELDE [M2E]	0.0226
PMIAKNLMCEADE [L11A]	0.0299
PMIAFNLMCELDE [K5F]	-0.0403
PMIAKCLMCELDE [N6C]	0.0405
PMIAKNLMCEVDE [L11V]	0.0642
PPIAKNLMCELDE [M2P]	-0.31
PMHAKNLMCELDE [I3H]	0.00143
PMIANNLMCELDE [K5N]	0.225
PMIAENLMCELDE [K5E]	0.000539

Block 5 — technique: RNA Bind-n-Seq; molecule type: RNA; matrix: in vitro; concentration: 200 nM; setting: whole 134-nt RNA, ends assumed; together with: 150 mM KCl; reference: input library; reading: higher = stronger binding
Target: Fragile X messenger ribonucleoprotein 1, C-terminal low-complexity region (Fmr1, Mus musculus, UniProt P35922)
All sequences stand within: GGGAGUUCUACAGUCCGACGAUC … UGGAAUUCUCGGGUGUCAAGG
Oligonucleotide	log2 enrichment
CAAGUCCUGUGCUACACAUCGUAUGUACCGAAUCGGUUUUUUUGGUUUGGAAAGGAAAGUAUUAUGUUACGCCGUUCGGAUCUGCACUUC	-0.918
CUUUGUAAUGGGAACUGCCUCUUUCCUGUUGUUGUUAAUGAAAAUGUCAGAAACCAGUUAUGUGAAUGAUCUCUCUGAAUCCUAAGGGCU	-0.119
CUCAAGUCCUGUGCUACACAUCGUAUGUACCGAAUCGGAGGAAAGGAAAAAGGAAAGUAUUAUGUUACGCCGUUCGGAUCUGCACUUCCA	-0.365
UGUCUCGAGCAGGGGACAAGACGUUCGAGGAGUACCUGGAUGAGUAUUACCGGCUGGACUACGAGGACAUCAUCGACGACCUGCCCUGUC	-0.912
UCAAGUCCUGUGCUACACAUCGUAUGUACCGAAUCGGGGUUGGGGUUGGGUUGGAAAGUAUUAUGUUACGCCGUUCGGAUCUGCACUUCC	0.15
UAACUUUAGAGGAGGAUCUGAUGGAUAUGGCAAUGGACGUGGAUUUGGGGAUGGCUAUAAUGGGUAUGGAGGAGGACCUGGAGGUGGCAA	0.324
CCUGUGCUACACAUCGUAUGUACCGAAUCGGGGUUUUUUGGUUUUUUGGGUUUUUUGGGGAAAGUAUUAUGUUACGCCGUUCGGAUCUGC	-0.525
GUCCUGUGCUACACAUCGUAUGUACCGAAUCAAACCCAAAUUUUUAAACCCCCCCAAAAAAGUAUUAUGUUACGCCGUUCGGAUCUGCAC	0.056
ACCAUGCAGGUGGGCAUCUUUGGGAAGUGGGGCAAGGGGGGGAUAGGGAGGGGGGUAACACUUUGGGAACAGGUGGUCCGAGGUCGUUUC	0.615
